{"data": "Published values collected from several papers", "note": "Numbered parts are unrelated; each lists some results of a single study."}
{"data": "Study 1", "target": "Interferon regulatory factor 7, full length, phosphomimetic (IRF7, Homo sapiens, UniProt Q92985, residues 1-503, S471D/S472D/S475D/S476D/S477D/S483D/S484D/S487D)", "technique": "protein-binding microarray", "form": "double-stranded DNA, one strand shown", "matrix": "in vitro", "concentration": "2200 nM top", "setting": "60-bp whole probe", "together with": "salmon DNA 0.4 mg/ml", "reference": "random background probes", "reading": "higher = stronger binding", "all sequences stand within": "GCCTAGCAC … GTCTTGATTCGCTTGACGCTGCTG", "UniProt Q92985, sequence (whole entry, unmodified, looked up)": "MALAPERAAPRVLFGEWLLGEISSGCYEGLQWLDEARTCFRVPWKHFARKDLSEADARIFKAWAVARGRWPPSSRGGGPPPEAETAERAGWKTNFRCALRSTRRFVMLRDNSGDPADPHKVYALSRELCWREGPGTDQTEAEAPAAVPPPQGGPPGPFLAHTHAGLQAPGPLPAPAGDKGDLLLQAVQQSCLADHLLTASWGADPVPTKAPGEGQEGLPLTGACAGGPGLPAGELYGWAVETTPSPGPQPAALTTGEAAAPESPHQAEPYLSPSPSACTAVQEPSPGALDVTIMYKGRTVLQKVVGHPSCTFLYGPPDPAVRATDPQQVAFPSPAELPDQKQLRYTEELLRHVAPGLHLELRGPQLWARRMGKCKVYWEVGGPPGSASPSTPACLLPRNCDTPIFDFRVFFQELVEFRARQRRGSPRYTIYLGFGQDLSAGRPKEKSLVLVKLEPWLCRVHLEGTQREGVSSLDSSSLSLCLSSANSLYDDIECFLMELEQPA"}
{"Sequence": "GACGGAATCGGGTATCGGGACGTGCTA", "fitted relative affinity [z-score]": -0.0423}
{"Sequence": "GACGGTCTCCTTCTCCCGACGTGCTAG", "fitted relative affinity [z-score]": 1.05}
{"Sequence": "TGAGATTTCAGTATCGATTAGTGCTAG", "fitted relative affinity [z-score]": 0.61}
{"Sequence": "GACGGTTTCCTTTTCCGGACGTGCTAG", "fitted relative affinity [z-score]": 5.65}
{"Sequence": "ACCCATTGAGATTTCCATTAGTGCTAG", "fitted relative affinity [z-score]": 1.09}
{"Sequence": "TTAGATATCGGGACTGGTTTAGTGCTA", "fitted relative affinity [z-score]": 0.00159}
{"Sequence": "TTAGGACTGGGACTTGGTTAGTGCTAG", "fitted relative affinity [z-score]": -0.504}
{"Sequence": "TAAGGTTTCCTTTCCCTTTAGTGCTAG", "fitted relative affinity [z-score]": 4.97}
{"data": "Study 2", "target": "Replicase polyprotein 1ab, nsp13 helicase (rep, Severe acute respiratory syndrome coronavirus 2, UniProt P0DTD1)", "action": "inhibitor", "concentration": "20 µM"}
{"Structure (SMILES)": "N=C(N)SCCc1ccc(OCc2ccc([N+](=O)[O-])cc2)cc1", "inhibition": "9.76%"}
{"Structure (SMILES)": "O=C(Cn1c(=O)sc2ccc(Cl)cc21)N1CCN(CCO)CC1", "inhibition": "3.41%"}
{"Structure (SMILES)": "CC(=O)N[C@H]1CSSC[C@@H](C(N)=O)NC(=O)[C@H](C(C)C)NC(=O)[C@H](C)NC(=O)[C@H](Cc2c[nH]cn2)NC1=O", "inhibition": "-3.07%"}
{"Structure (SMILES)": "CC1(C)S[C@@H]2[C@H](NC(=O)[C@H](C(=O)O)c3ccsc3)C(=O)N2[C@H]1C(=O)O", "inhibition": "-1.05%"}
{"Structure (SMILES)": "COC(=O)N/N=C/c1c[n+]([O-])c2ccccc2[n+]1[O-]", "inhibition": "3.56%"}
{"Structure (SMILES)": "N[C@H]1CCN(O)C1=O", "inhibition": "5.33%"}
{"Structure (SMILES)": "C[C@](N)(Cc1ccc(O)c(O)c1)C(=O)O", "inhibition": "-2.73%"}
{"Structure (SMILES)": "Cc1ccccc1C(=O)Nc1ccc(C(=O)N2CCCC(O)c3cc(Cl)ccc32)c(C)c1 (stereo not shown)", "inhibition": "7.11%"}
{"Structure (SMILES)": "CCCc1nc(C(C)(C)O)c(C(=O)O)n1Cc1ccc(-c2ccccc2-c2nnn[nH]2)cc1", "inhibition": "-1.77%"}
{"Structure (SMILES)": "Cn1c([N+](=O)[O-])cnc1COC(N)=O", "inhibition": "0.99%"}
{"Structure (SMILES)": "NC(=O)c1ncn([C@@H]2O[C@H](CO)[C@@H](O)[C@H]2O)n1", "inhibition": "1.91%"}
{"Structure (SMILES)": "O=C(Nc1nc2cccc(-c3ccc(CN4CCS(=O)(=O)CC4)cc3)n2n1)C1CC1", "inhibition": "0.99%"}
{"Structure (SMILES)": "COc1c(Nc2ccc(S(C)(=O)=O)nc2C)ncnc1OC1CCN(C(=O)OC(C)C)CC1", "inhibition": "1.09%"}
{"Structure (SMILES)": "O=S(=O)(O)c1cc(I)c(O)c2ncccc12", "inhibition": "1.34%"}
{"Structure (SMILES)": "CCOc1nc2cccc(C(=O)OC(C)OC(=O)OC3CCCCC3)c2n1Cc1ccc(-c2ccccc2-c2nn[nH]n2)cc1 (stereo not shown)", "inhibition": "17.7%"}
{"Structure (SMILES)": "CN(C)CCOc1ccc(-c2nc(-c3ccncc3)c(-c3ccc4c(c3)CC/C4=N\\O)[nH]2)cc1", "inhibition": "3.04%"}
{"Structure (SMILES)": "COC1CCN(c2cccc(-c3cc(NC(C)=O)nc(-n4nc(C)cc4C)n3)n2)CC1", "inhibition": "-0.29%"}
{"Structure (SMILES)": "N=C(NCc1ccc(Cl)cc1)SCCCc1c[nH]cn1", "inhibition": "-0.29%"}
{"Structure (SMILES)": "O=C1C(O)=C(O)C(=O)C(O)=C1O", "inhibition": "5.92%"}
{"Structure (SMILES)": "CN1C[C@H](C(=O)N[C@]2(C)O[C@@]3(O)[C@@H]4CCCN4C(=O)[C@H](Cc4ccccc4)N3C2=O)C[C@@H]2c3cccc4[nH]cc(c34)C[C@H]21", "inhibition": "1.7%"}
{"data": "Study 3", "cell line": "HEK-293T", "observed": "pseudovirus infection", "technique": "FDA-approved drug library screen", "organism": "VSV pseudotyped with SARS-CoV-2 spike", "concentration": "10 µM", "time": "16 h", "reference": "vehicle-treated"}
{"SMILES": "Cc1cnc(C(=O)N[C@H]2CCCCC/C=C\\[C@@H]3C[C@@]3(C(=O)NS(=O)(=O)C3CC3)NC(=O)[C@@H]3C[C@@H](Oc4nc5ccccc5c5ccccc45)CN3C2=O)cn1", "GFP-positive cells [%]": 91.7}
{"SMILES": "CN(C)CCC(c1ccccc1)c1ccccn1 (stereo not shown)", "GFP-positive cells [%]": 86.3}
{"SMILES": "CO[C@H]1C[C@@H]2CC[C@@H](C)[C@@](O)(O2)C(=O)C(=O)N2CCCC[C@H]2C(=O)O[C@H]([C@H](C)C[C@@H]2CC[C@@H](O)[C@H](OC)C2)CC(=O)[C@H](C)/C=C(\\C)[C@@H](O)[C@@H](OC)C(=O)[C@H](C)C[C@H](C)/C=C/C=C/C=C/1C", "GFP-positive cells [%]": 88.7}
{"SMILES": "Cc1ccc(-c2cc(C(F)(F)F)nn2-c2ccc(S(N)(=O)=O)cc2)cc1", "GFP-positive cells [%]": 92.5}
{"data": "Study 4", "target": "PABPC1L2, full length, GST fusion (mouse, UniProt A0ABA7IW68)", "technique": "RNAcompete", "form": "RNA", "matrix": "in vitro", "concentration": "20 nM", "setting": "7-mer, probes averaged, single round", "reference": "mean of 7-mers", "reading": "higher = stronger binding", "Target sequence (chain)": "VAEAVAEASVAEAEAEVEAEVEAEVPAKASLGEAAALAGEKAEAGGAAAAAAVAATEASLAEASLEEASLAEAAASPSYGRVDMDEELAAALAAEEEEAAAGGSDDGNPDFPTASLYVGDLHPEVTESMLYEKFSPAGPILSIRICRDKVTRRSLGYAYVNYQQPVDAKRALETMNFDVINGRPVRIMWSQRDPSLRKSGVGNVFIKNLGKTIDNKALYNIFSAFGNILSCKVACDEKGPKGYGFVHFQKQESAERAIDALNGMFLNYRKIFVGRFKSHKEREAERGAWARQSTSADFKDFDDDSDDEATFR"}
{"Sequence": "UUAUCUU", "7-mer Z-score": -0.157}
{"Sequence": "AGAGAAA", "7-mer Z-score": 1.25}
{"Sequence": "CACCAAG", "7-mer Z-score": -0.0138}
{"Sequence": "CAUCCGA", "7-mer Z-score": -0.253}
{"Sequence": "UUGCUCU", "7-mer Z-score": -0.463}
{"data": "Study 5", "target": "Replicase polyprotein 1ab, main protease (rep, Severe acute respiratory syndrome coronavirus 2, UniProt P0DTD1)", "observed": "enzyme activity", "action": "inhibitor"}
{"SMILES": "Sc1nnc(-c2ccccc2Cl)o1", "IC50 [µM]": "> 20"}
{"SMILES": "CNC[C@H](O)c1ccc(O)c(O)c1", "IC50 [µM]": "> 20"}
{"SMILES": "C=CCN1CCc2cc(O)c(O)cc2C(c2ccccc2)C1 (stereo not shown)", "IC50 [µM]": "> 20"}
{"note": "Some of these lines once more (study 2):"}
{"Structure (SMILES)": "O=C(Cn1c(=O)sc2ccc(Cl)cc21)N1CCN(CCO)CC1", "inhibition": "3.41%"}
{"Structure (SMILES)": "CN(C)CCOc1ccc(-c2nc(-c3ccncc3)c(-c3ccc4c(c3)CC/C4=N\\O)[nH]2)cc1", "inhibition": "3.04%"}
{"Structure (SMILES)": "Cn1c([N+](=O)[O-])cnc1COC(N)=O", "inhibition": "0.99%"}
{"Structure (SMILES)": "N=C(N)SCCc1ccc(OCc2ccc([N+](=O)[O-])cc2)cc1", "inhibition": "9.76%"}
